# Measurements gathered from unrelated publications.
# Lines come from different studies, so protocols differ. Values joined by “and” are separate records of one study, mostly repeats; a detail may differ. ± marks the error that the study gave.
# Beta-lactamase CTX-M-27: Beta-lactamase CTX-M-27 (Escherichia coli, UniProt Q840M4)
# UniProt Q9LIR4, sequence (whole entry, looked up): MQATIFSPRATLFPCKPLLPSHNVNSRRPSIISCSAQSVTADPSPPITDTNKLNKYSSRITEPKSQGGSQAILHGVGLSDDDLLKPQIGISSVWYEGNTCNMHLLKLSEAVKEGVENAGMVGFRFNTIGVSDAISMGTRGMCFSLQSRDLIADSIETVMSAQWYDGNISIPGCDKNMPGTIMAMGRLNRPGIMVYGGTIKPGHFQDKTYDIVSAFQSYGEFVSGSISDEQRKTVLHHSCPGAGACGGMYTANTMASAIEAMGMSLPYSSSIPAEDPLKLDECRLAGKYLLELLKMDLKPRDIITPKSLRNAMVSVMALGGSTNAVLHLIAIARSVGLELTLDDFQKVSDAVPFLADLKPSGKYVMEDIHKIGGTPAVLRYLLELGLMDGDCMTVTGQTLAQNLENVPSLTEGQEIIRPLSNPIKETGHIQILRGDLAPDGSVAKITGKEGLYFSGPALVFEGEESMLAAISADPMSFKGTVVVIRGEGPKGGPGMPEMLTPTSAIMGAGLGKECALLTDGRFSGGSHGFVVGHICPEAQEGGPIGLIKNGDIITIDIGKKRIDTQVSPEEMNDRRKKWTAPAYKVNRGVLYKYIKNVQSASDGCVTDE
# UniProt B9K712, sequence (whole entry, unmodified, looked up): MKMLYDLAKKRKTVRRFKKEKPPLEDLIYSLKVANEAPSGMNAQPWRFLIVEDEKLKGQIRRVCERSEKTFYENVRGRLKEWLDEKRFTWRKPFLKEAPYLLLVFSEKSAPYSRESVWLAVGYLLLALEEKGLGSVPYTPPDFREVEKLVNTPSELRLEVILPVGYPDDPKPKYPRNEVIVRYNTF
# UniProt Q5VT52, sequence (whole entry, looked up): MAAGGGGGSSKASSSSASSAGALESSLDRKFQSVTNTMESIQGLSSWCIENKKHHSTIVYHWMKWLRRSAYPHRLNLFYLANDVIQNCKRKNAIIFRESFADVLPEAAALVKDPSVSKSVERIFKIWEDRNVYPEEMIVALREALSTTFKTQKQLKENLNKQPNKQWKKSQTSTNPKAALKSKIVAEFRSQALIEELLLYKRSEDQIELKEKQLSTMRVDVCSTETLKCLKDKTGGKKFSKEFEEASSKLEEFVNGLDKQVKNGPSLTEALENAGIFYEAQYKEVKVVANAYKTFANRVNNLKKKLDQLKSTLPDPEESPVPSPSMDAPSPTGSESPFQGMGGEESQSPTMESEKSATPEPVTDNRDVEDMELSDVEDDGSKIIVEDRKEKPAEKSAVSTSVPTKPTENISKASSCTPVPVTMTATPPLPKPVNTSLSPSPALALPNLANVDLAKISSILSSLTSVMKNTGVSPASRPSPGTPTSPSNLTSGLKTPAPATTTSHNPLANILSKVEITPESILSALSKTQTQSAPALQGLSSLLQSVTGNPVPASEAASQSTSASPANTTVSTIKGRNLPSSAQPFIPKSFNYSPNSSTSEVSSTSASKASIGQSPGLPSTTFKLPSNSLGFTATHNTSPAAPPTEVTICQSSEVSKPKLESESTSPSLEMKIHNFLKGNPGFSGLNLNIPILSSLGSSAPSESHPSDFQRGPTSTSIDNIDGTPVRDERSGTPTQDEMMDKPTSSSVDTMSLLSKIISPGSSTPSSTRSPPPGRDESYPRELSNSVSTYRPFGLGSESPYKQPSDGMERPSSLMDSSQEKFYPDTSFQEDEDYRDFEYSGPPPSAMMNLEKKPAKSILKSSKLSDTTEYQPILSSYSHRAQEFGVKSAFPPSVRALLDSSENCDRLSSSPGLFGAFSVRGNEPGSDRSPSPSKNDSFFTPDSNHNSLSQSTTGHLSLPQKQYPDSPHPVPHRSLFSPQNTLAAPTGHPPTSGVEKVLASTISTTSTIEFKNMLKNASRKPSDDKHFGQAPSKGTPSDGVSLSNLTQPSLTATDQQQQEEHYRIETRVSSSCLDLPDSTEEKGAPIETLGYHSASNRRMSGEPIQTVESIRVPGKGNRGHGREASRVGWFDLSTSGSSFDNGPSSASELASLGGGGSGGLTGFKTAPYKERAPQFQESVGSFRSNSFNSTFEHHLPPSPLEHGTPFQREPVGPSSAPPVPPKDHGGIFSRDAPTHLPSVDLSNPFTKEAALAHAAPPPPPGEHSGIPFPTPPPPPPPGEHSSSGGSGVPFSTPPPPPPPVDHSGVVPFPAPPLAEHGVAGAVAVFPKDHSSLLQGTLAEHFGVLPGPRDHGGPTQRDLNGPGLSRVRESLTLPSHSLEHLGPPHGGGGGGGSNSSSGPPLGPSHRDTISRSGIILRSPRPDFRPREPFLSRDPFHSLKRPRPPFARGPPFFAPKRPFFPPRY
# UniProt Q42371, sequence (whole entry, unmodified, looked up): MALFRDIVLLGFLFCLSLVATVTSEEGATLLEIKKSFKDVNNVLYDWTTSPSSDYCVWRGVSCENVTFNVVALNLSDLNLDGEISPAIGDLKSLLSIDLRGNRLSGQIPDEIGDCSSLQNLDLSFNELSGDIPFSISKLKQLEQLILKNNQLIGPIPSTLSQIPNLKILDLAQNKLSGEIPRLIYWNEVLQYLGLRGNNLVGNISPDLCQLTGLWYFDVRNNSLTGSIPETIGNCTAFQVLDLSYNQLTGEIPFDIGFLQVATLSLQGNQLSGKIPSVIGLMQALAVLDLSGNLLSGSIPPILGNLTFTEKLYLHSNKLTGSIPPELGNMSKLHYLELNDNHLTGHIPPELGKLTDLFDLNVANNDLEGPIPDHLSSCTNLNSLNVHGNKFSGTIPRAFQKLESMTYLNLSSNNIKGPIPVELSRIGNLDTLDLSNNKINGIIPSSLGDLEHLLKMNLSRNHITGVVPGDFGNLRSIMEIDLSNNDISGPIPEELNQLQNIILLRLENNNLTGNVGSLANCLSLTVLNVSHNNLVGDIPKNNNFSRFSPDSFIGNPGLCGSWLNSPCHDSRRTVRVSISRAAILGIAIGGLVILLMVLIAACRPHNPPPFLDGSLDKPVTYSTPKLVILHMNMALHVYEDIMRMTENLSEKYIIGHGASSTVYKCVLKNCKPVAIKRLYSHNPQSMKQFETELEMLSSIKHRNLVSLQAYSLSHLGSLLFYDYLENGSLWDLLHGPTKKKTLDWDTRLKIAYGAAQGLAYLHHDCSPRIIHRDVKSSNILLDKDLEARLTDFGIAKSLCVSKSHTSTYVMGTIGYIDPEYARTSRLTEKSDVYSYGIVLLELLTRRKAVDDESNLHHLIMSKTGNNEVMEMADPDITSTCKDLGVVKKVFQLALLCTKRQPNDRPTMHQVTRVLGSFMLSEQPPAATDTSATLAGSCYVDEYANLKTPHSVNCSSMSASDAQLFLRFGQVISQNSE
# UniProt Q07741, sequence (whole entry, looked up): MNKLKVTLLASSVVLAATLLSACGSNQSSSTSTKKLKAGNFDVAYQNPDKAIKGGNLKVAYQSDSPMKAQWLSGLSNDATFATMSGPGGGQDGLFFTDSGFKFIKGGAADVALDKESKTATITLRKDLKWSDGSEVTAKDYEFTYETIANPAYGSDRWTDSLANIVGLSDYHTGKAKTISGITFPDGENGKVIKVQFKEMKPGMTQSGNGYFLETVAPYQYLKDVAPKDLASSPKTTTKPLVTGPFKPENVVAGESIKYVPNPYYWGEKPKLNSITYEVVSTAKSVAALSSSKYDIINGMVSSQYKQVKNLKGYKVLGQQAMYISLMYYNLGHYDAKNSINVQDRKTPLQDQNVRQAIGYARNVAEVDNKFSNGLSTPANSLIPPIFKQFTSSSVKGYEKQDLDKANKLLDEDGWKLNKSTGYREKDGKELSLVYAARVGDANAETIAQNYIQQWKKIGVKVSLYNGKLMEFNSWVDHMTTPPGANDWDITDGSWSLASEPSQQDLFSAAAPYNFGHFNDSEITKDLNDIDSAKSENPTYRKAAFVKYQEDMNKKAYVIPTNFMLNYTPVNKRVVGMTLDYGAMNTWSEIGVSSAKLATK
# UniProt O15392, sequence (whole entry, looked up): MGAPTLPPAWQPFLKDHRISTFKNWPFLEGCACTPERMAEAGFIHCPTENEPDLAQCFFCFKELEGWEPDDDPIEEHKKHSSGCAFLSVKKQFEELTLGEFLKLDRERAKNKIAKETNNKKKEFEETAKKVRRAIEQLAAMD
# UniProt Q9HB29, sequence (whole entry, looked up): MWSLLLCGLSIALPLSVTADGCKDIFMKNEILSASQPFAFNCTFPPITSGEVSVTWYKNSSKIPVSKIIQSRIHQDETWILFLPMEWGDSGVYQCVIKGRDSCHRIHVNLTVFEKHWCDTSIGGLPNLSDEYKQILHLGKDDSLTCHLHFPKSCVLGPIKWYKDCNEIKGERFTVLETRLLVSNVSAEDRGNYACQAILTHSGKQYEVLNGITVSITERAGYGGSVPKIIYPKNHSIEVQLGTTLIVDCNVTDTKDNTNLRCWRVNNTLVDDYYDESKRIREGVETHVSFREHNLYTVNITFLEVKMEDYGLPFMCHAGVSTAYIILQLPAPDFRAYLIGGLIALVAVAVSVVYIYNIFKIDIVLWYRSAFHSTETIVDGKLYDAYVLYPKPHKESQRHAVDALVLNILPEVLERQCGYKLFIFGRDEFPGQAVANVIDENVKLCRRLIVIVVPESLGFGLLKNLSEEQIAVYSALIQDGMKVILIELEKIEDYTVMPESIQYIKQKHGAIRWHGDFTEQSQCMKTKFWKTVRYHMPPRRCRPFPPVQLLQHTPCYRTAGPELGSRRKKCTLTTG
# UniProt P37353, sequence (whole entry, unmodified, looked up): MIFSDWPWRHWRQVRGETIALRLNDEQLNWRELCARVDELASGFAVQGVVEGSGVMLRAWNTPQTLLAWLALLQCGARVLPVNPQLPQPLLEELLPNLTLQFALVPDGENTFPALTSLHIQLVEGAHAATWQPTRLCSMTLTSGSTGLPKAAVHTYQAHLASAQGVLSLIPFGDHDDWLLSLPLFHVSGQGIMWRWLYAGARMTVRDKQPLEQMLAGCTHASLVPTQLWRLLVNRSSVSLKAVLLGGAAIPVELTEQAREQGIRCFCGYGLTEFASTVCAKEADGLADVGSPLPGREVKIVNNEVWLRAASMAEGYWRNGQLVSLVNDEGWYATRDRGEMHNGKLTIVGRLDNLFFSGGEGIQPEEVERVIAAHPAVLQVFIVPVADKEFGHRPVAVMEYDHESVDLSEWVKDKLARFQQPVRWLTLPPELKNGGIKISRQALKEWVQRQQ
SMILES,target,assay,conditions,Kd
COC(=O)[C@H](Cc1ccccc1)NC(=O)[C@@H]1CCCN1C(=O)[C@H](CCSC)NC(=O)[C@H](C)NC(C)=O,"PIN1 (Homo sapiens, UniProt Q13526)",binding,pH 7.4,14.1 µM
CC(C)[C@@H]1NC(=O)[C@H](Cc2ccccc2)NC(=O)CSC[C@@H](C(N)=O)NC(=O)[C@H](CCC(=O)O)NC(=O)[C@H](CO)NC(=O)[C@H](Cc2c[nH]c3cccc(Cl)c23)NC(=O)[C@H](C2CCCCC2)NC(=O)[C@H](C(C)C)NC(=O)[C@H](Cc2ccc(O)cc2)NC(=O)[C@H](CC(=O)O)NC(=O)[C@H](Cc2c[nH]c3ccccc23)NC(=O)[C@H](Cc2ccc(N)nc2)NC(=O)[C@H](Cc2c[nH]c3ccc(Cl)cc23)NC(=O)[C@H](CCC(=O)O)NC1=O,"Interleukin-1 receptor-like 2, D1-D2 domains (IL1RL2, Homo sapiens, UniProt Q9HB29)",SPR,IL-36R D1-D2 domains,0.00057 µM
CSCC[C@H](N)C(=O)N[C@@H](CC(=O)O)C(=O)N[C@@H](CO)C(=O)N[C@@H](Cc1ccccc1)C(=O)N[C@@H](CC(N)=O)C(=O)N[C@@H](Cc1ccc(O)cc1)C(=O)N[C@H](C(=O)N[C@H](C(=O)N1CCC[C@H]1C(=O)N[C@@H](CC(=O)O)C(=O)N[C@@H](Cc1ccc(O)cc1)C(=O)NCC(=O)N[C@@H](Cc1c[nH]cn1)C(=O)N[C@@H](Cc1ccc(O)cc1)C(=O)N[C@@H](CC(=O)O)C(=O)N[C@@H](CC(=O)O)C(=O)N[C@@H](CCCCN)C(=O)N[C@@H](CC(=O)O)C(=O)N[C@H](C(=O)N[C@@H](CC(C)C)C(=O)N[C@@H](CC(=O)O)C(=O)N[C@@H](CC(C)C)C(=O)N[C@@H](CC(N)=O)C(=O)N[C@H](C(=O)N1CCC[C@H]1C(=O)N[C@H](C(=O)N[C@@H](CC(=O)O)C(=O)N[C@@H](CCCCN)C(=O)O)C(C)C)[C@@H](C)O)[C@@H](C)O)[C@@H](C)O)[C@@H](C)O,"Complement C5, C5a fragment (Homo sapiens, UniProt P01031)",circular dichroism titration,"pH 7.4, 25 °C",~0.126 µM
C[C@@H](O)[C@H](NC(=O)[C@@H]1CCCN1C(=O)[C@H](CO)NC(=O)[C@H](Cc1ccc(O)cc1)NC(=O)[C@H](COP(=O)(O)O)NC(=O)[C@@H]1CCCN1C(=O)[C@H](COP(=O)(O)O)NC(=O)[C@@H](NC(=O)[C@@H]1CCCN1C(=O)[C@H](CO)NC(=O)[C@H](Cc1ccc(O)cc1)NC(=O)[C@H](CO)NC(=O)[C@@H]1CCCN1C(=O)[C@@H](N)CO)[C@@H](C)O)C(=O)N[C@@H](COP(=O)(O)O)C(=O)N1CCC[C@H]1C(=O)N[C@@H](COP(=O)(O)O)C(=O)N[C@@H](Cc1ccc(O)cc1)C(=O)N[C@@H](CO)C(=O)O,"Regulation of nuclear pre-mRNA domain-containing protein 2 (Homo sapiens, UniProt Q5VT52)","binding, ITC",pH 7.5,> 1000 µM
Nc1ncnc2c1ncn2C1OC(COc2cccc(CCC(=O)c3ccccc3C(=O)O)c2)C(O)C1O (centres unmarked),"2-succinylbenzoate--CoA ligase (menE, Escherichia coli, UniProt P37353, K437A)",,,0.249 µM
C[n+]1cn([C@@H]2O[C@H](COP(=O)([S-])OP(=O)(O)OP(=O)(O)OP(=O)([S-])OC[C@H]3O[C@@H](n4c[n+](C)c5c(O)nc(N)nc54)[C@H](O)[C@@H]3O)[C@@H](O)[C@H]2O)c2nc(N)nc(O)c21 (some centres unmarked),"mRNA decapping complex subunit 2, regulatory domain (dcp2, Schizosaccharomyces pombe, UniProt O13828)",binding to Dcp2 regulatory domain,,~800 µM
C#CCN1C(=O)C(O)(C(=O)O)Oc2cc(F)ccc21 (centres unmarked),"Dihydroxy-acid dehydratase, chloroplastic (DHAD, Arabidopsis thaliana, UniProt Q9LIR4)",microscale thermophoresis,,< 3 µM and 1 µM
CC[C@H](C)[C@H](N)C(=O)NCC(=O)N[C@@H](CO)C(=O)N[C@H](C(=O)N[C@@H](C)C(=O)N1CCC[C@H]1C(=O)N[C@H](C(=O)N[C@H]1CSSC[C@@H]2NC(=O)[C@H](CCCNC(=N)N)NC(=O)[C@H](Cc3ccc(O)cc3)NC(=O)[C@H](Cc3c[nH]cn3)NC(=O)[C@H](Cc3ccc(O)cc3)NC(=O)[C@H](C)NC(=O)[C@H](CO)NC(=O)[C@H](CC(N)=O)NC(=O)[C@H]([C@@H](C)CC)NC(=O)[C@@H]3CCCN3C(=O)[C@H](CC(=O)O)NC(=O)[C@H](CC(N)=O)NC(=O)CNC(=O)[C@H](CCC(=O)O)NC(=O)[C@H](C(C)C)NC(=O)[C@@H]3CCCN3C(=O)[C@H](C(C)C)NC(=O)[C@H](CCC(N)=O)NC(=O)[C@H](CCC(=O)O)NC(=O)[C@H](C)NC(=O)[C@H](CCCNC(=N)N)NC(=O)[C@@H]3CSSC[C@H](NC(=O)[C@H](CCC(=O)O)NC(=O)[C@H](CC(N)=O)NC(=O)[C@H](Cc4ccc(O)cc4)NC(=O)[C@H]([C@@H](C)O)NC1=O)C(=O)N[C@@H](CCCNC(=N)N)C(=O)NCC(=O)N[C@@H](CSSC[C@@H](C(=O)N[C@@H](Cc1c[nH]cn1)C(=O)N[C@@H](CCCNC(=N)N)C(=O)O)NC(=O)[C@H](C(C)C)NC2=O)C(=O)N[C@@H](CCCNC(=N)N)C(=O)N[C@@H](Cc1ccc(O)cc1)C(=O)N[C@@H](CCCCN)C(=O)N3)[C@@H](C)O)[C@@H](C)O,"LRR receptor-like serine/threonine-protein kinase ERECTA, ectodomain (ERECTA, Arabidopsis thaliana, UniProt Q42371)","binding, QCM",4 °C,0.044 ± 0.021 µM
CC(C)C[C@@H]1NC(=O)CN(C)C(=O)[C@H](Cc2c[nH]c3ccccc23)NC(=O)[C@H](CCC(=O)O)NC(=O)[C@H](Cc2ccccc2)N(C)C(=O)[C@H](Cc2ccccc2)NC(=O)CSC[C@@H](C(N)=O)NC(=O)[C@H](CCCCN)NC(=O)[C@H](C(C)C)NC(=O)[C@H](Cc2ccc(O)cc2)NC(=O)[C@H](Cc2ccc(O)cc2)NC(=O)[C@H](C(C)C)NC(=O)[C@H](Cc2ccccc2)N(C)C(=O)[C@H](CCCNC(=N)N)NC1=O,"AT-rich interactive domain-containing protein 1B (ARID1B, Homo sapiens, UniProt Q8NFD5)",SPR,278 K,0.0008 µM
Cc1cc(-c2ccc3c(c2)CCC3O)cc(C)c1O (centres unmarked),"ESR2 (Homo sapiens, UniProt Q92731)","binding, competitive radioligand binding",,25 µM
C[C@H](N)C(=O)N[C@@H](CCCNC(=N)N)C(=O)N[C@H](C(=O)N[C@@H](CCCCN)C(=O)N[C@@H](CCC(N)=O)C(=O)N[C@H](C(=O)N[C@@H](C)C(=O)N[C@@H](CCCNC(=N)N)C(=O)N[C@@H](CCCCN)C(=O)N[C@@H](CO)C(=O)N[C@H](C(=O)NCC(=O)O)[C@@H](C)O)[C@@H](C)O)[C@@H](C)OP(=O)(O)O,"Baculoviral IAP repeat-containing protein 5.1-A (birc5.1-a, Xenopus laevis, UniProt Q8JGN5)",isothermal titration calorimetry,"pH 8.2, 25 °C, added: histone H3 peptide",19.9 ± 2.4 µM
CCOC(=O)CCCOc1ccc(C(=C2C=CC(=[N+]3CCC3)C=C2)c2ccc(N3CCC3)cc2)cc1,dL5** fluorogen-activating protein,fluorescence turn-on,,0.016 µM
CC[C@H](C)[C@H](NC(=O)[C@H](C)NC(=O)[C@H](CC(=O)O)NC(=O)[C@H](CC(C)C)NC(=O)[C@H](CC(N)=O)NC(=O)[C@H](C)NC(C)=O)C(=O)N[C@H](C(=O)N[C@@H](CCCCN)C(=O)N[C@H](C(=O)N[C@@H](CCC(N)=O)C(=O)N[C@@H](C)C(=O)N[C@@H](Cc1c[nH]c2ccccc12)C(=O)N[C@@H](C)C(=O)N[C@@H](CCCNC(=N)N)C(=O)N[C@@H](CCSC)C(=O)N[C@@H](Cc1c[nH]c2ccccc12)C(=O)N[C@@H](C)C(=O)N[C@@H](C)C(=O)N[C@@H](CCCNC(=N)N)C(=O)N[C@@H](CCCNC(=N)N)C(=O)N[C@@H](CCC(N)=O)C(=O)N[C@@H](Cc1ccc(O)cc1)C(=O)N[C@@H](CC(C)C)C(N)=O)[C@@H](C)CC)[C@@H](C)CC,"Calmodulin-1 (CALM1, Homo sapiens, UniProt P0DP23)","binding, native gel titration","1 h, 22 °C, added: Ca2+, calmodulin 35 µM",76 ± 18 µM
N=C(N)NCCC[C@H](NC(=O)[C@H](Cc1ccccc1)NC(=O)[C@@H]1CCCN1C(=O)[C@H](CO)NC(=O)[C@H](Cc1ccccc1)NC(=O)CNC(=O)[C@@H]1CCCN1C(=O)[C@@H]1CCCN1C(=O)[C@@H](N)CCCNC(=N)N)C(=O)N[C@@H](CCCCNS(=O)(=O)c1ccc(C2=c3cc4c5c(c3Oc3c2cc2c6c3CCCN6CCC2)CCC[N+]=5CCC4)c(S(=O)(=O)[O-])c1)C(=O)O,"Oligopeptide-binding protein OppA (oppA, Lactococcus lactis subsp. lactis, UniProt Q07741)","binding, fluorescence anisotropy","pH 6.5, 37 °C, added: dye-labelled peptide",26 ± 1 µM
N[C@@H](Cc1ccc(O)c(I)c1)C(=O)O,"Iodotyrosine deiodinase (IYD, Thermotoga neapolitana, UniProt B9K712, M41A/Y112A)",FMN fluorescence quenching,"25 °C, M41A/Y112A variant",0.024 ± 0.002 µM
CSCC[C@H](NC(=O)[C@H](CC(=O)O)NC(=O)[C@H](CC(C)C)NC(=O)[C@@H](N)CCC(N)=O)C(=O)N[C@@H](Cc1ccccc1)C(=O)N[C@@H](CCCCN)C(=O)N[C@@H](CCC(=O)O)C(N)=O,"BIRC5 (Homo sapiens, UniProt O15392)",binding,,> 0.3 µM
O=C(Nc1cccc(-c2nn[nH]n2)c1)c1cc(-c2cccs2)cc(C(F)(F)F)c1,Beta-lactamase CTX-M-27,surface plasmon resonance,25 °C,13.8 ± 1.2 µM
N=C(N)NCCC[C@@H]1NC(=O)[C@H](Cc2csc3ccccc23)NC(=O)[C@@H](Cc2ccccc2)NC(=O)[C@H](Cc2ccccc2)NC(=O)[C@H](CCC(=O)NCCOCCOCC(=O)N[C@@H](CCCCNC(=O)c2ccc3c(c2)C(=O)OC32c3ccc4cc(O)ccc4c3Oc3c2ccc2cc(O)ccc32)C(N)=O)NC(=O)[C@@H](CCCNC(=N)N)NC(=O)[C@H](CCCNC(=N)N)NC(=O)[C@@H](CCCNC(=N)N)NC1=O,fetal bovine serum proteins,"binding, fluorescence polarization",1 h,1.2 ± 0.4 µM
O=C(Nc1cccc(-c2nn[nH]n2)c1)c1cc(-c2cc[nH]n2)cc(C(F)(F)F)c1,Beta-lactamase CTX-M-27,surface plasmon resonance,25 °C,1.95 ± 0.07 µM
CC(C)C[C@H](NC(=O)[C@H](CCC(N)=O)NC(=O)[C@@H]1CSSC[C@@H]2NC(=O)[C@H](CC(N)=O)NC(=O)[C@@H](N)CSSC[C@H](NC(=O)[C@H](Cc3ccccc3)NC(=O)[C@H](C)NC(=O)[C@H]([C@@H](C)O)NC(=O)[C@H](CCC(=O)O)NC(=O)[C@@H]3CCCN3C(=O)[C@H](C)NC(=O)[C@H](CCCCN)NC2=O)C(=O)N[C@@H](C)C(=O)N[C@@H](Cc2ccc(O)cc2)C(=O)N[C@@H](Cc2c[nH]c3ccccc23)C(=O)N1)C(N)=O,"Protein Mdm4, residues 24-108 (MDM4, Homo sapiens, UniProt O15151)","binding, SPR competition","synthetic MDMX 24-108, added: immobilized p53 peptide 15-29",0.0934 ± 0.0092 µM

# Excerpt of the above:
SMILES,target,assay,conditions,Kd
Cc1cc(-c2ccc3c(c2)CCC3O)cc(C)c1O (centres unmarked),"ESR2 (Homo sapiens, UniProt Q92731)","binding, competitive radioligand binding",,25 µM
C[C@H](N)C(=O)N[C@@H](CCCNC(=N)N)C(=O)N[C@H](C(=O)N[C@@H](CCCCN)C(=O)N[C@@H](CCC(N)=O)C(=O)N[C@H](C(=O)N[C@@H](C)C(=O)N[C@@H](CCCNC(=N)N)C(=O)N[C@@H](CCCCN)C(=O)N[C@@H](CO)C(=O)N[C@H](C(=O)NCC(=O)O)[C@@H](C)O)[C@@H](C)O)[C@@H](C)OP(=O)(O)O,"Baculoviral IAP repeat-containing protein 5.1-A (birc5.1-a, Xenopus laevis, UniProt Q8JGN5)",isothermal titration calorimetry,"pH 8.2, 25 °C, added: histone H3 peptide",19.9 ± 2.4 µM
COC(=O)[C@H](Cc1ccccc1)NC(=O)[C@@H]1CCCN1C(=O)[C@H](CCSC)NC(=O)[C@H](C)NC(C)=O,"PIN1 (Homo sapiens, UniProt Q13526)",binding,pH 7.4,14.1 µM
